# Published values of several laboratories.
# Every numbered part comes from another study and shows a few of its results, in no order. ± gives the spread as reported.

# Study 1
# Organism: SARS-CoV-2 Wuhan spike VSV pseudovirus
# Observed: pseudovirus entry
# Concentration: 10 µM
SMILES,inhibition [%]
C[C@@H]1O[C@@H](O[C@H]2C[C@@H](O)[C@]3(CO)[C@H]4[C@H](O)C[C@]5(C)[C@@H](C6=CC(=O)OC6)CC[C@]5(O)[C@@H]4CC[C@]3(O)C2)[C@H](O)[C@H](O)[C@H]1O,58
COC[C@@H]1CN(S(=O)(=O)c2ccc(C#N)cc2)C[C@H]1c1ccncc1,87
CCC(CC)C(=O)N1C[C@@H](CO)[C@H](c2nc(COC)no2)C1,83
CC1Oc2ccccc2OC1C(=O)Nc1nc(-c2ccc(N(C)S(C)(=O)=O)cc2)cs1 (stereo not shown),84
COc1ccc(F)c(-c2ccccc2OC(C)C(N)=O)c1 (stereo not shown),99
CCc1ccccc1-c1ccc(NC(C)=O)c(OC)c1,83
CCOCC(=O)N1CC(F)(F)C[C@H]1c1nc(C(=O)NC)no1,79
CC(C)CN1CCOC(CNC(=O)Cn2ncc(Br)c(Br)c2=O)C1 (stereo not shown),75

# Mixed results
# rep nsp12 RdRp: Replicase polyprotein 1ab, nsp12 RdRp (rep, Severe acute respiratory syndrome coronavirus 2, UniProt P0DTD1)
# rep papain-like protease: Replicase polyprotein 1ab, papain-like protease (rep, Severe acute respiratory syndrome coronavirus 2, UniProt P0DTD1)
# rep nsp14: Replicase polyprotein 1ab, nsp14 (rep, Severe acute respiratory syndrome coronavirus 2, UniProt P0DTD1)
SMILES,tested on,assay,test system,setting,how to read,endpoint,result
CC(C)=O.COC(=O)N[C@H](C(=O)N1CC2(CC2)C[C@H]1c1ncc(-c2ccc3c(c2)C(F)(F)c2cc(-c4ccc5nc([C@@H]6[C@H]7CC[C@H](C7)N6C(=O)[C@@H](NC(=O)OC)C(C)C)[nH]c5c4)ccc2-3)[nH]1)C(C)C,rep nsp12 RdRp,"binding, biolayer interferometry",,concentration not given,,BLI response,0.03 nm
O=C(O)c1cc(=O)cc(C(=O)O)o1,rep papain-like protease,,,"concentration not given, C111S mutant",relative to: positive control,activity,19%
CS(=O)(=O)N1CCN(Cc2cc3nc(-c4cccc5[nH]ncc45)nc(N4CCOCC4)c3s2)CC1,rep nsp12 RdRp,"binding, biolayer interferometry",,50 µM,,BLI response,0.03 nm
NC(=O)C1=C(O)C[C@@H]2C[C@@H]3Cc4cccc(O)c4C(=O)C3=C(O)[C@]2(O)C1=O,rep papain-like protease,,,"concentration not given, C111S mutant",relative to: positive control,activity,13.5%
O=C(NC1CCN(c2ncnc3[nH]cnc23)CC1)c1cccc(NS(=O)(=O)c2ccccc2)c1,rep nsp14,enzyme activity,SARS-CoV-2,concentration not given,,inhibition,23.2%
CCC(CC)[C@H](NC(C)=O)[C@@H]1[C@H](O)[C@@H](C(=O)O)C[C@H]1N=C(N)N,"neuraminidase (Influenza B virus, UniProt C0LT34, H273Y)",,,,,IC50,0.029 ± 0.0028 µM
O=C(NC1CCN(c2ncnc3[nH]cnc23)CC1)c1cccc(S(=O)(=O)N2CCCCC2)c1,rep nsp14,"NSP14 enzyme activity, inhibitor",,0.04883 µM,,inhibition,-4.95%
N#C[C@@]1(n2ccc(N)nc2=O)O[C@H](CO)[C@@H](O)[C@H]1O,SARS-CoV-2,viral replication,"Vero, Gamma",,,EC90,6.4 ± 0.03 µM
